Measured values of several laboratories.
Each line is one published result; not all experiments were run side by side. Several values in a cell are separate wells, animals, samples, runs or records. ± gives the spread as reported.

Compound | assay | test system | setting | how to read | endpoint | result
Cc1nc(N)nc2c1C(=O)N[C@@H](c1ccc(F)cc1-c1cccc(O[11CH3])n1)C2 | radioligand, ex vivo biodistribution | mouse, MDA-MB-231 xenograft, tumour | 60 min p.i. |  | SUV | 0.6 ± 0.1
Cc1cc(-c2ccc(C(=O)[C@@H]3CCCC[C@H]3C(=O)Nc3cnn4c3C(=O)NCC4)cc2)[nH]n1 |  | human, urine and faeces | oral, 200 mg, mean of six subjects | baseline: dose | cumulative recovery of radioactivity | 85.2%
CN([O-])C(=O)CN1CCN(CC(=O)N(C)[O-])CCN(Cc2ccccn2)CC1.[89Zr+4] |  | mouse, bone | intravenous, 4 h |  | tracer uptake | 5.17 %ID/g
O=C(O)CCCCC1(N(CC(=O)O)CC(=O)O)CN(CC(=O)O)CCN(CC(=O)O)C1 | pH-potentiometry, measured: logK5H | 0.15 M NaClO4 | 25 °C |  | protonation constant (log) | 2.83
CCCC[C@H]1C(=O)N(C)[C@@H](CCCC)C(=O)N[C@@H](CCCCNC(=S)Nc2ccc(CN3CCN(CC(=O)O)CCN(CC(=O)O)CC3)cc2)C(=O)N[C@H](C(=O)NCC(N)=O)CSCC(=O)N[C@@H](Cc2ccc(O)cc2)C(=O)N(C)[C@@H](C)C(=O)N[C@@H](CC(N)=O)C(=O)N2CCC[C@H]2C(=O)N[C@@H](Cc2cnc[nH]2)C(=O)N[C@@H](CCC(=O)O)C(=O)N2C[C@H](O)C[C@H]2C(=O)N[C@@H](Cc2c[nH]c3ccccc23)C(=O)N[C@@H](CO)C(=O)N[C@@H](Cc2cn(CC(=O)O)c3ccccc23)C(=O)N1C [fluorine-18 labelled] | PET, measured: PD-L1 | huCD34 mouse A-375 xenograft, whole tumour plane | pretreatment |  | SUV | < 2 SUV
CN1CCC[C@]1(C)/C=C/S(=O)(=O)NC(=O)Nc1c2c(cc3c1CC(O)C3)CCC2 (some centres unmarked) |  | human, plasma | oral, 50 mg twice daily of parent drug, day 14, metabolite of dosed drug |  | AUC(0-24) | 104 µg·h/mL
CC(C)(C)NCC(SS(=O)(=O)O)c1ccccc1 (centres unmarked) |  | Swiss Webster mice, Schistosoma mansoni-infected | 100 mg/kg x 4 doses from day 42 post-infection, perfusion day 56 post-infection | baseline: vehicle | body weight decrease | 4.31%
CN(C)C(=O)c1cccc(N2Cc3cn(Cc4ccccc4F)nc3C2)c1 | metabolic stability | human, liver microsomes |  |  | half-life | 0.95 h
CC[C@H](C)/C=C/C=C/C=C/C(O)=C/C(=O)C(F)(F)F | UPLC-MS | PBS | ketone-hydrate equilibrium |  | ketone fraction at equilibrium | 55%
C=C(NC(=O)c1csc(-c2nc3c(cc2O)-c2nc(cs2)C(=O)NC(C(C)O)C(=O)NC(=C(C)OC)c2nc(cs2)C(=O)NC2c4nc(cs4)C(=O)NC(COC(=O)c4c5c6c(cccc6n4O)COC(=O)C(OC4CC(C)(O)C(N(C)C)C(C)O4)C2OC5)c2nc-3cs2)n1)C(N)=O (centres unmarked) |  | male cynomolgus monkey, plasma | intravenous, 3 mg/kg, single dose, infusion |  | half-life | 4.71 h
CCCC[C@H](OC(C)=O)c1ccccc1C(=O)O |  | beagle dog, both sexes, whole blood | intravenous, 1.5 mg/kg, day 7 |  | AUC(0-tau) | 1.37 ± 0.408 µg·h/mL
C=CC(=O)Nc1cc(Nc2nccc(-c3cn(C)c4ccccc34)n2)c(OC)cc1N(C)CCNC | storage stability | human plasma | 72 h, -80 °C, low QC level |  | recovery | 94.4%
CN1CCC[C@]1(C)/C=C/S(=O)(=O)NC(=O)Nc1c2c(cc3c1C(O)CC3)CCC2 (some centres unmarked) |  | human, plasma | oral, 12.5 mg twice daily of parent drug, day 14, metabolite of dosed drug |  | AUC(0-24) | 61.7 µg·h/mL
N[C@@H](CC(=O)O)C(=O)OC(C(=O)O)c1ccc(Br)cc1[N+](=O)[O-] (mixture of isomers) | 1H NMR, dark | 50 mM sodium phosphate | concentration not given, pH 9.0, room temperature, 12.5% DMSO-d6 |  | hydrolysis half-life, B isomer | 28 ± 2 h
C=C[C@]1(C)C[C@@H](OC(=O)CSc2ccc(NC(=O)c3ccco3)cc2)[C@]2(C)[C@H](C)CC[C@]3(CCC(=O)[C@H]32)[C@@H](C)[C@@H]1O |  | Mycoplasma gallisepticum-infected chickens, plasma | intramuscular, 80 mg/kg, 6 h |  | plasma concentration | 438 ng/mL and 227 ng/mL and 293 ng/mL and 795 ng/mL and 759 ng/mL and 355 ng/mL and 209 ng/mL and 427 ng/mL
CN1CCC[C@]1(C)/C=C/S(=O)(=O)NC(=O)Nc1c2c(cc3c1CCC3O)CCC2 (some centres unmarked) |  | human, plasma | oral, 100 mg twice daily of parent drug, day 14, metabolite of dosed drug |  | AUC(0-24) | 1520 µg·h/mL
Cc1ccc(OCC(=O)N(Cc2cccs2)c2ccn[nH]2)cc1 | ex vivo plasma stability | human plasma | 750 ng/mL, 24 h, 37 °C |  | remaining compound | 90%
COc1ccc2c(c1)O[B-]1(c3ccccc3)OC(=O)C(c3ccccc3)=N[N+]1=C2 (centres unmarked) | UV/vis decay | aqueous buffer |  |  | hydrolysis activation energy | 20.2 kcal/mol
O=C(NS(=O)(=O)c1cccs1)c1cc2ccccc2n1Cc1ccc(Br)c2ccccc12 |  | Sprague-Dawley rat, male, plasma | oral, 20 mL/kg, 0.25 h |  | plasma concentration | 2520 ng/mL
CN(O)C(=O)CCC(=O)NCCCN(CCCCN(CCCNC(=O)CCC(=O)N(C)O)C(=O)CCC(=O)N(C)O)C(=O)CCC(=O)N(C)O.[89Zr] | radio-TLC | aqueous buffer | 5 d, pH 8.5, 37 °C, 89Zr-labelled complex, together with: DTPA 100-fold excess |  | intact complex | 99.9 ± 0.1%
O=C1C2CC3CC1CC(C(=O)N1CCN(c4ccc([N+](=O)[O-])c5ncccc45)CC1)(C3)C2 |  | ICR mice male, plasma | oral, 5 mg/kg |  | Tmax | 0.25 h
O=C(Nc1cnccc1-c1ccc([18F])cc1)c1ccnc(NC(=O)C2CC2)c1 |  | FVB/NJ mouse, both sexes, brain | intravenous, 1 min post-injection, together with: P-gp inhibitor tariquidar 15 mg/kg iv |  | SUV | 1.17 ± 0.5
C/C(N)=N/C(=N\S(=O)(=O)c1ccc(C(F)(F)F)cc1)N1C[C@H](c2ccccc2)C(c2ccc(Cl)cc2)=N1 |  | male C57BL/6 mouse, plasma | oral, 10 mg/kg |  | Tmax | 1.5 h
O=C(Nc1cnccc1-c1ccc([18F])nc1)c1ccnc(NC(=O)C2CC2)c1 |  | FVB/NJ mice (both sexes), large intestine | intravenous, dose not given, 120 min |  | SUV | 0.999
O=C(O)c1ccc(NC2=C/C(=N/S(=O)(=O)c3ccc4ccccc4c3)c3ccccc3C2=O)cc1 | dynamic light scattering | buffer | 20 µM |  | hydrodynamic radius | 12.5 nm
CCc1cnc(NC(=O)c2cc(S(=O)(=O)N3CCOCC3)ccc2N(C)C2CCCC2)s1 |  | mouse, blood | 10 mg/kg, 3 doses |  | Bands differential count | 0%
CCCCN1C(=O)c2cccc3c(NCCCCCN4CCOCC4)ccc(c23)C1=O |  | ethylene glycol |  |  | fluorescence lifetime | 8.1 ns
CC(C)(O)c1ncc([S@](N)(=O)=NC(=O)Nc2c3c(cc4c2CCC4)CCC3)s1 | measured: general and administration-site disorders | healthy human volunteers | oral, 100 mg single dose, capsule formulation |  | subjects with adverse events | 50%
CC[C@H](C)[C@H](NC(=O)[C@@H](NC(=O)[C@H](CCCCN)NC(=O)[C@@H](NC(=O)[C@@H]1CCCN1[C@@H]1CN(C(=O)[C@@H](NC(=O)[C@@H](NC(=O)[C@@H](NC(=O)[C@@H](NC(=O)[C@@H](NC(=O)[C@@H](N)CCCCN)C(C)C)C(C)C)C(C)C)[C@@H](C)CC)[C@@H](C)O)CC[C@H]1NS(=O)(=O)c1ccc(C)cc1)[C@@H](C)O)C(C)C)C(=O)N[C@@H](CC(C)C)C(=O)N[C@@H](Cc1c[nH]cn1)C(N)=O | CD spectroscopy | 20 mM phosphate buffer | 125 µM, 20 °C |  | beta-sheet content | 29.5%

Repeated from above:
Compound | assay | test system | setting | how to read | endpoint | result
CCCC[C@H](OC(C)=O)c1ccccc1C(=O)O |  | beagle dog, both sexes, whole blood | intravenous, 1.5 mg/kg, day 7 |  | AUC(0-tau) | 1.37 ± 0.408 µg·h/mL
C=CC(=O)Nc1cc(Nc2nccc(-c3cn(C)c4ccccc34)n2)c(OC)cc1N(C)CCNC | storage stability | human plasma | 72 h, -80 °C, low QC level |  | recovery | 94.4%
